Experimental data gathered from unrelated publications.
Lines come from different studies, so protocols differ. ± gives the spread as reported.

Oc1cccc(-c2cccc(O)n2)n1.[Cl-].[Cl-].[Ru+2].c1cnc2c(c1)c1c(c3cccnc32)OCCO1.c1cnc2c(c1)c1c(c3cccnc32)OCCO1
logD (shake flask; octanol/phosphate buffer; pH 7.40): 1.81

CC(=O)O[C@H](CC1CC(=O)NC(=O)C1)[C@@H]1CC(C)C[C@H](C)C1=O (stereo partly shown)
logD (pH 7.4): 1.04

O=C([O-])CN1CCN(CC(=O)[O-])CCN(C(CCC(=O)NCCCCCNC(=O)CCC(NC(=O)NC(CCC(=O)O)C(=O)O)C(=O)O)C(=O)O)CC1.[64Cu+2] (stereo not shown)
logD (shake-flask; 1-octanol/PBS; pH 7.4): -2.21 ± 0.35

CC1CCC2C(C)C(=O)OC3C2C1CCC3(C)O (stereo not shown)
logD (pH 7.4): 2.31

COc1ccc(-c2csc(N/N=C(\C)c3cc(O)cc(O)c3)n2)cc1
logD (1-octanol/phosphate buffer; 1 h, pH 7.4, room temperature): 1.5

NC12CNCCNCC(NCc3ccc(CNC(=O)CCCC(=O)NCc4ccc(-c5nncnn5)cc4)cc3)(CNCCNC1)CNCCNC2.[64Cu+2]
logD (1-octanol/PBS; pH 7.4): -2.08 ± 0.06

Oc1cccc(-c2cccc(O)n2)n1.[Cl-].[Cl-].[Ru+2].c1cnc2c(c1)ccc1cccnc12.c1cnc2c(c1)ccc1cccnc12
logD (shake flask; octanol/phosphate buffer; pH 5.80): 1.3

O=C([O-])CN1CCN(CC(=O)NCCCCCNC(=O)CCC(NC(=O)NC(CCC(=O)O)C(=O)O)C(=O)O)CCN(Cc2cccc(C(=O)[O-])n2)CC1.[64Cu+2] (stereo not shown)
logD (shake-flask; 1-octanol/PBS; pH 7.4): -1.19 ± 0.42

Oc1ccccc1-c1nn(-c2ccccn2)[n+](-c2ccccc2)n1.[Br-]
logD (shake-flask; octanol/PBS; pH 7.4): 0.1

COc1cc2nc(N3CCCCC3)nc(NC3CCN(C)CC3)c2cc1OC
logD (chromatographic; pH 7.4): 3.8

O=C(c1ccc(-c2cccc(C(F)(F)F)c2)cc1)N1CCN(c2ncccn2)CC1
logD (pH 7.4): 4.4

CC(C)(C)[C@H](NC(=O)C(F)F)C(=O)N1C[C@H]2[C@@H]([C@H]1C(=O)N[C@H](C#N)C[C@@H]1CCCNC1=O)C2(C)C
logD: ~1.5

O=C(NCCNCCO)c1cn(Cc2ccc(F)cc2)c2cc(Cl)c(OCc3ccc(C(F)(F)F)cc3)cc2c1=O
logD (shake-flask; 1-octanol/PBS; 2 h, pH 7.4): 2.9

[Br-].c1ccc(-c2nn(-c3ccccn3)[n+](-c3ccccc3)n2)cc1
logD (shake-flask; octanol/PBS; pH 7.4): -0.5

CC(=O)N([O-])CCCCCNC(=O)CCC(=O)N([O-])CCCCCNC(=O)CCC(=O)N([O-])CCCCCN.[89Zr+4]
logD (octanol/PBS; pH 7.4): -2.7 ± 6

Cc1cccc(CSc2nc(N)c(C#N)c(-c3cccc(O[11CH3])c3)c2C#N)n1
logD (1-octanol/phosphate buffer 0.1 M; pH 7.4): 3.25

Cc1ccccc1-c1cc(N2CCN(C)CC2)ccc1N(C)C(=O)C(C)(C)c1cc(C(F)(F)F)cc(C(F)(F)F)c1
logD (octanol/acetate buffer; pH 5.0): 3.85

CN(C)c1ccc(-c2nc3ccc(OCCCCCN4CCN5CCN(CC4)CC(=O)[O][Al]([18F])[O]C(=O)C5)cc3s2)cc1
logD (shake-flask; n-octanol/PBS): 0.74 ± 0.004

CC(=O)Nc1ncc(CN2CC[C@H](Oc3cccc([18F])n3)C[C@@H]2C)s1
logD (shake flask; 1-octanol/sodium phosphate buffer 0.15 M; pH 7.4): 3.04 ± 0.01

O=C(O[C@H](CO)C(F)(F)F)N1C[C@@H]2[C@H](C1)[C@H]2c1ccn(-c2ccc([18F])nc2)n1
logD (shake flask; n-octanol/PBS): 2.66 ± 0.01

Cc1ccccc1-c1cc(N2CCN(C(=O)CCC(=O)O)CC2)ccc1N(C)C(=O)C(C)(C)c1cc(C(F)(F)F)cc(C(F)(F)F)c1
logD (octanol/acetate buffer; pH 5.0): 4.9

COC(=O)N1c2ccc3c(nc(Cc4ccccc4)n3[C@@H]3CCC[C@@H](C(=O)O)C3)c2CC[C@@H]1C
logD: 2.2

[Br-].c1ccc(-n2nc(-c3ccccn3)n[n+]2-c2ccccc2)cc1
logD (shake-flask; octanol/PBS; pH 7.4): -1.8

Cn1cncn1.[Ru+2].c1cc(-c2ccc3ccccc3n2)nc(-c2ccc3ccccc3n2)c1.c1ccc2cc3nc4c5cccnc5c5ncccc5c4nc3cc2c1
logD (shake-flask): -0.26 ± 0.02

[2H]C1([2H])C[C@@H](C[C@@H](C#N)NC(=O)[C@@H]2[C@@H]3[C@H](CN2C(=O)[C@@H](NC(=O)C(F)(F)F)C(C)(C)C)C3(C)C)C(=O)N1
logD: 1.88

For quick reference, copied from above:
Cn1cncn1.[Ru+2].c1cc(-c2ccc3ccccc3n2)nc(-c2ccc3ccccc3n2)c1.c1ccc2cc3nc4c5cccnc5c5ncccc5c4nc3cc2c1
logD (shake-flask): -0.26 ± 0.02

CC(C)(C)[C@H](NC(=O)C(F)F)C(=O)N1C[C@H]2[C@@H]([C@H]1C(=O)N[C@H](C#N)C[C@@H]1CCCNC1=O)C2(C)C
logD: ~1.5
